Assay results pooled from the literature.
± gives the spread as reported.
B1: enzyme (Enterococcus faecalis, UniProt Q836M4); chain MEIHFEKVTSDNRKAVENLQVFAEQQAFIESMAENLKESDQFPEWESAGIYDGNQLIGYAMYGRWQDGRVWLDRFLIDQRFQGQGYGKAACRLLMLKLIEKYQTNKLYLSVYDTNSSAIRLYQQLGFVFNGELDTNGERVMEWTHQNK
B2: enzyme Y1159A (Homo sapiens, UniProt Q9NTI2); chain MLNGAGLDKALKMSLPRRSRIRSSVGPVRSSLGYKKAEDEMSRATSVGDQLEAPARTIYLNQPHLNKFRDNQISTAKYSVLTFLPRFLYEQIRRAANAFFLFIALLQQIPDVSPTGRYTTLVPLIIILTIAGIKEIVEDFKRHKADNAVNKKKTIVLRNGMWHTIMWKEVAVGDIVKVVNGQYLPADVVLLSSSEPQAMCYVETANLDGETNLKIRQGLSHTADMQTREVLMKLSGTIECEGPNRHLYDFTGNLNLDGKSLVALGPDQILLRGTQLRNTQWVFGIVVYTGHDTKLMQNSTKAPLKRSNVEKVTNVQILVLFGILLVMALVSSAGALYWNRSHGEKNWYIKKMDTTSDNFGYNLLTFIILYNNLIPISLLVTLEVVKYTQALFINWDTDMYYIGNDTPAMARTSNLNEELGQVKYLFSDKTGTLTCNIMNFKKCSIAGVTYGHFPELAREPSSDDFCRMPPPCSDSCDFDDPRLLKNIEDRHPTAPCIQEFLTLLAVCHTVVPEKDGDNIIYQASSPDEAALVKGAKKLGFVFTARTPFSVIIEAMGQEQTFGILNVLEFSSDRKRMSVIVRTPSGRLRLYCKGADNVIFERLSKDSKYMEETLCHLEYFATEGLRTLCVAYADLSENEYEEWLKVYQEASTILKDRAQRLEECYEIIEKNLLLLGATAIEDRLQAGVPETIATLLKAEIKIWVLTGDKQETAINIGYSCRLVSQNMALILLKEDSLDATRAAITQHCTDLGNLLGKENDVALIIDGHTLKYALSFEVRRSFLDLALSCKAVICCRVSPLQKSEIVDVVKKRVKAITLAIGDGANDVGMIQTAHVGVGISGNEGMQATNNSDYAIAQFSYLEKLLLVHGAWSYNRVTKCILYCFYKNVVLYIIELWFAFVNGFSGQILFERWCIGLYNVIFTALPPFTLGIFERSCTQESMLRFPQLYKITQNGEGFNTKVFWGHCINALVHSLILFWFPMKALEHDTVLTSGHATDYLFVGNIVYTYVVVTVCLKAGLETTAWTKFSHLAVWGSMLTWLVFFGIYSTIWPTIPIAPDMRGQATMVLSSAHFWLGLFLVPTACLIEDVAWRAAKHTCKKTLLEEVQELETKSRVLGKAVLRDSNGKRLNERDRLIKRLGRKTPPTLFRGSSLQQGVPHGAAFSQEEHGAVSQEEVIRAYDTTKKKSRKK
B3: Rep68 1-490 C151S (Adeno-associated virus 2, UniProt P03132); sequence looked up; chain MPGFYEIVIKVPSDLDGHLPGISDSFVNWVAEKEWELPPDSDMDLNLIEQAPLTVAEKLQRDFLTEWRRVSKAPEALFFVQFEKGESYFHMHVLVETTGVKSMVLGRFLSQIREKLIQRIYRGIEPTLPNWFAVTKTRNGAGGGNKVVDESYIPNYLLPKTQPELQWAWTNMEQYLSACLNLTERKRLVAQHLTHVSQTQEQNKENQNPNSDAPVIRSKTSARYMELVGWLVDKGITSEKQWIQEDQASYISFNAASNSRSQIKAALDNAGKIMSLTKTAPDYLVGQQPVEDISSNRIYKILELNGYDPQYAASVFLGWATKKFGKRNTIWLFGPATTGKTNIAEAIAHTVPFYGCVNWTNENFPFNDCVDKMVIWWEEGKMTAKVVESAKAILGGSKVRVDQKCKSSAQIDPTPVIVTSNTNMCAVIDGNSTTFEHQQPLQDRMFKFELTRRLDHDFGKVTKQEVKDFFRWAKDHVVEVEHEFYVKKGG
B4: enzyme (Trypanosoma brucei, UniProt Q9GV41); chain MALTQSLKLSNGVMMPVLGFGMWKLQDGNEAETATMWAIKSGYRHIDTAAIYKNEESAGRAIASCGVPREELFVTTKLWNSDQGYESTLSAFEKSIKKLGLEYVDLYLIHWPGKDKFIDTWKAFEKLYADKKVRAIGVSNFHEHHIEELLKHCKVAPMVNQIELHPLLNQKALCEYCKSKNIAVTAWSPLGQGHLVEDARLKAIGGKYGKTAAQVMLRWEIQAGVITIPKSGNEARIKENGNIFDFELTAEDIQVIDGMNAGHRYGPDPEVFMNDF
B5: enzyme (Arabidopsis thaliana, UniProt Q944I4); chain SSYLSSKLSPIRTHSSFAACGCSWIQDNSMVHDYATTTNGTSKRCSALPTTNTVDVSSVSDLFEFICSGPLVNKIGITPQRVGQSIDKWLLYGSQLCRLFQLNELKLTIPQKARLYHYYIPVFIWCEDQIALHNSKFKDGDDVPPLVIGFSAPQGCGKTTLVFALDYLFKTTKKKSATISVDDFYLTAEGQAELRKKNPGNALLEYRGNAGSHDLKLSVETLEALSKLTKEGLKMKVPRYNKSAYSGRGDRADSSTWPEVEGPLSVILFEGWMLGFKPLPADVVKAVDPQLEVVNKNLEAYYDAWDKYIDAWVVIKIQDPSYVYRWRLQAEIAMRQDGQAGMSDEEVNDFVSRYLPAYKAYLPTLYAEGPSGSDPDRVLAIDIDEERNPILAN
UniProt P30566, sequence (whole entry, looked up): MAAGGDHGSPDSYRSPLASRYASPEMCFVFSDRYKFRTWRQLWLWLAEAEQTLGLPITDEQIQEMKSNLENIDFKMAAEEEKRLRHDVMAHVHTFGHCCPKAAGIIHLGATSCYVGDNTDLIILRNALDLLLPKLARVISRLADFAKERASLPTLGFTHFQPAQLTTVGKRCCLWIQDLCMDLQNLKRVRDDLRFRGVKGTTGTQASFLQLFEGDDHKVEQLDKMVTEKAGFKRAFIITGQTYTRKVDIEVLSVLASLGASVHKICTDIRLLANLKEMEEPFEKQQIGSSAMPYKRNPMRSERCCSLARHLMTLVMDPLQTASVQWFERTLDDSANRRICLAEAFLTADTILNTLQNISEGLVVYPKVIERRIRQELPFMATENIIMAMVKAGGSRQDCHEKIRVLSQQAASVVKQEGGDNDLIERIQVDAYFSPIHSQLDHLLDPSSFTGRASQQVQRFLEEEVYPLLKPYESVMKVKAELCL

Substance | tested on | test | test system | setting | scale | quantity | result
Polymyxin B |  |  | mouse | intraperitoneal, 20 mg/kg single dose, day 5 |  | survival | 100%
insulin human |  | refers to: GCLM | mouse, uninfected, brain | ip, dose not given, together with: insulin | relative to: PBS-treated | mRNA fold change | 1.16
ADSL (Homo sapiens, UniProt P30566) | Nc1c(C(=O)N[C@@H](CC(=O)O)C(=O)O)ncn1[C@@H]1O[C@H](COP(=O)(O)O)[C@@H](O)[C@H]1O | steady-state kinetics |  | pH 7.4, 25 °C |  | K0.5 | 1.8 µM
B1 (enzyme) | NCCCNCCCCNCCCN | steady-state kinetics |  | pH 8, 37 °C, Hill n 1.7, together with: AcCoA 1 mM |  | kcat/Km | 311000 M⁻¹ s⁻¹
B2 (enzyme Y1159A) | CCCCCCCC/C=C\CCCCCCCC(=O)OC[C@H](COP(=O)(O)OC[C@H](N)C(=O)O)OC(=O)CCCCCCC/C=C\CCCCCCCC | steady-state kinetics |  | pH 7.5, 37 °C, together with: ATP 5 mM |  | K0.5 | 24.5 µM
aspterric acid | Arabidopsis thaliana | root length | Col-0, seedlings | 50 µg/mL, half-strength MS |  | inhibition | 99.1%
B3 (Rep68 1-490 C151S) | itself | cryo-EM |  |  |  | subunits per oligomer | 7
HVLVMSATRR |  |  | peptide, C57BL/6J mice, male, blood | subcutaneous osmotic pump, 3 mg/kg/day peptide basis, 8 weeks |  | basophils | 0%
glucagon |  | isotope dilution | human, non-diabetic | intravenous infusion, 0.12 ng/kg/min, 160 to 180 min |  | splanchnic extraction | 23.8 ± 2.6%
B4 (enzyme) | [H][C@]12C[C@]([H])(OO1)[C@H](C/C=C\CCCC(=O)O)[C@H]2/C=C/[C@@H](O)CCCCC | steady-state kinetics |  | pH 7, 37 °C |  | Vmax | 2 µmol/min/mg
ALS1 S627I/W548L (Oryza sativa) | CC(=O)C(=O)O | steady-state kinetics |  | pH 7.5, 37 °C, together with: FAD, MgCl2, TPP |  | Vmax | 0.157 µmol/min/mg
B5 (enzyme) | Nc1ncnc2c1ncn2[C@@H]1O[C@H](COP(=O)(O)OP(=O)(O)OP(=O)(O)O)[C@@H](O)[C@H]1O | steady-state kinetics |  | pH 7.8, 30 °C |  | Vmax | 132 µmol/min/mg
heparin sodium |  |  | healthy Chinese adult volunteers | continuous intravenous infusion, 8 IU/kg/h, 5 days |  | subjects with mild AEs | 50%
amyloid β-peptide (1–28) |  | substrate, LC-MS | phosphate buffer | 10 µM, 24 h, pH 7.4, 25 °C, together with: MINP(β1–14) 1 equiv |  | remaining substrate | < 0.1%
nonaarginine | PorA peptide pore | peptide binding, planar bilayer single-channel recording |  | pH 7.4, +40 mV, trans side, 150 mM KCl |  | Kd | 16.7 ± 2 µM

Excerpt of the above:
Substance | tested on | test | test system | setting | scale | quantity | result
heparin sodium |  |  | healthy Chinese adult volunteers | continuous intravenous infusion, 8 IU/kg/h, 5 days |  | subjects with mild AEs | 50%
B4 (enzyme) | [H][C@]12C[C@]([H])(OO1)[C@H](C/C=C\CCCC(=O)O)[C@H]2/C=C/[C@@H](O)CCCCC | steady-state kinetics |  | pH 7, 37 °C |  | Vmax | 2 µmol/min/mg
